Assay results gathered from unrelated publications.
Parts stem from different laboratories: compare values within a part only. Changes are numbered by the printed parent chain.

Set 1 — technique: RNA Bind-n-Seq; form: RNA; medium: in vitro; tested at: 200 nM; notes: whole 134-nt RNA, ends assumed; with: 150 mM KCl; reference: input library; reading: higher = stronger binding
Target: Fragile X messenger ribonucleoprotein 1, C-terminal low-complexity region (Fmr1, Mus musculus, UniProt P35922)
The log2 enrichment of `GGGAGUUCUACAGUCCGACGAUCAAGUCCUGUGCUACACAUCGUAUGUACCGAAUCGGGGUUUUGGGGUUUUGGUUUUGGAAAGUAUUAUGUUACGCCGUUCGGAUCUGCACUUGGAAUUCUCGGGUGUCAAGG` is reported as -0.2.
The log2 enrichment of `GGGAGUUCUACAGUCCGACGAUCGUCCUGUGCUACACAUCGUAUGUACCGAAUCGGGAAAAAAAGGGUUUUUUUGGGUGGGAAAGUAUUAUGUUACGCCGUUCGGAUCUGCACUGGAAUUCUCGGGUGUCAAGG` is reported as 0.17.
For `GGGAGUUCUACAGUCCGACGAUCUCCUGUGCUACACAUCGUAUGUACCGAAUCAAAUUUAAACCCCCCCAAACCCCCCCAAAAAAGUAUUAUGUUACGCCGUUCGGAUCUGCAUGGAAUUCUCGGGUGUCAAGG`, the log2 enrichment was 0.196.
`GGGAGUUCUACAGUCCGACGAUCCUGUGCUACACAUCGUAUGUACCGAAUCAAAUUUUUUUAAAUUUUUUUAAACCCCCCCAAAAAAGUAUUAUGUUACGCCGUUCGGAUCUGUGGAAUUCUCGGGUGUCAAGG` has a log2 enrichment of -0.407.
With `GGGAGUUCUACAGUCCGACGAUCAGUCCUGUGCUACACAUCGUAUGUACCGAAUCGGGGCCCCGGGCCCCGGGCCCCGGGGAAAGUAUUAUGUUACGCCGUUCGGAUCUGCACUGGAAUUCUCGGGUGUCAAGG` the log2 enrichment was -0.628.
`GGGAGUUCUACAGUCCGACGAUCUCAUUCUAUACAGCCUUUUGUUUCAUUAGGAUCAGGCAGCUAGAGACAUGAAGAGGCUUGAAGAAAAGGACAAGGAAAGAAAAAACGUAAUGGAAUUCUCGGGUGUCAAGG` has a log2 enrichment of -1.37.
For `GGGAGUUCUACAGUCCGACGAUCCACAGACAACACGCCCCCACACAGACACAGAGGGAAGGGGUUGGGAUGGGGACAGGGUGCACAGCAGGGCGGGGUAGGACCCCAGCCCCUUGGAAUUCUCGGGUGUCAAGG`, the log2 enrichment was 1.55.
`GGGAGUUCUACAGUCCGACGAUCUGUUUAAUAAACGUGAAGAUGUCUCGCAGUCCUGAUGCGAAGGAAGACCCUGUGGAGUGCCCUCUUUGCAUGGAGCCCUUGGAGAUAGAUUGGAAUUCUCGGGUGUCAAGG` has a log2 enrichment of -1.14.
For `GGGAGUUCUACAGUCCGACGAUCUCCUGUGCUACACAUCGUAUGUACCGAAUCGGGAAAGGGAAAAAAAGGGAAAAAAAGGGAAAGUAUUAUGUUACGCCGUUCGGAUCUGCAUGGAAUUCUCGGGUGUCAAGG`, the log2 enrichment was -0.206.

Set 2 — technique: universal PBM; form: double-stranded DNA, one strand shown; medium: in vitro; tested at: 600 nM; reading: higher = stronger binding
Target: Sal-like protein 4, full length isoform A (SALL4, Homo sapiens, UniProt Q9UJQ4, residues 1-1053)
Chain of UniProt Q9UJQ4 (whole entry, looked up): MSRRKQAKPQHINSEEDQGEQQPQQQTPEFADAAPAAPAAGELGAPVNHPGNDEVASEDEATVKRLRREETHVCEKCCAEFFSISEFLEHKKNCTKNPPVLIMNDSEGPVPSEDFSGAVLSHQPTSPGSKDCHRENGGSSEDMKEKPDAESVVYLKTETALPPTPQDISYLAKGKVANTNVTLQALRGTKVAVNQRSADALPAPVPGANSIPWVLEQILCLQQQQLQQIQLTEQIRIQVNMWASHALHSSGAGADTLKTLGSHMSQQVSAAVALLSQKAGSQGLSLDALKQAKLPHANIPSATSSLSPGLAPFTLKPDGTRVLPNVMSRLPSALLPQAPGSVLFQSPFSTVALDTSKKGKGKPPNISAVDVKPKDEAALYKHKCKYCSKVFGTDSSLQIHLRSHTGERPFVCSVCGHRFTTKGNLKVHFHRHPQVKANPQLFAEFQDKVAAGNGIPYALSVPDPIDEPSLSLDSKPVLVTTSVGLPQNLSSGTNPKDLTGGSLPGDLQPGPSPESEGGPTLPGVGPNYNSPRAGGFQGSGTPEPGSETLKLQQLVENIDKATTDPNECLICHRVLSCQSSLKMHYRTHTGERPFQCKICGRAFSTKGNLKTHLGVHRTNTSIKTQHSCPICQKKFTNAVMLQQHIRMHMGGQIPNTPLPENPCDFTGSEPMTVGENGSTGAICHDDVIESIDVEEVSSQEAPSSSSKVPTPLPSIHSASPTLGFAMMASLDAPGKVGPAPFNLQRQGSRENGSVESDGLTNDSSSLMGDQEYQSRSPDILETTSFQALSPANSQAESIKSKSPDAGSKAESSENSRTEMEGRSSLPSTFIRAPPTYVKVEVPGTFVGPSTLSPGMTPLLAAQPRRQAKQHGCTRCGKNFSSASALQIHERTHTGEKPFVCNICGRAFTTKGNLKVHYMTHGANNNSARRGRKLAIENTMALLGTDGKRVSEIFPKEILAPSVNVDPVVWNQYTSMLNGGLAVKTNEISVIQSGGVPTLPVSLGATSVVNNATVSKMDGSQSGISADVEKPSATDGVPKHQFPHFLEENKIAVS
Notes: 8-mer, flanks averaged, mean of replicates
`GGGCATAA` has an E-score of 0.151.
With `ACCGGGTG` the E-score was -0.315.
`ATAAAAGG` gave an E-score of 0.27.
For `CGCCGCGC`, the E-score was -0.359.
For `CCGGTTTA`, the E-score was -0.158.
The E-score of `AAACAGAG` is reported as 0.0949.
`CATGGACG` has an E-score of -0.0744.
`GATTGCAA` gave an E-score of 0.0363.
For `AGACTAAT`, the E-score was 0.184.
For `CCCGAGAA`, the E-score was -0.138.
For `ACCGATCA`, the E-score was 0.0766.
With `ATTCCTGG` the E-score was -0.00736.
The E-score of `CCCGGTCA` is reported as -0.243.
For `GCGTCTCC`, the E-score was -0.261.
The E-score of `CAGGAAAA` is reported as 0.0826.
`GGCGTATA` has an E-score of 0.0183.
`GTCGACAC` gave an E-score of -0.0726.
The E-score of `GATTCCTA` is reported as 0.0059.
`CCGTAAGC` gave an E-score of -0.184.
For `CGGCGTCC`, the E-score was -0.405.
`TACGATGA` has an E-score of 0.164.

Set 3 — target: CCNF, cyclin fold, Cln2 fusion (human); technique: yeast growth competition, sequencing; medium: yeast; notes: strong parent motif; reference: not given; reading: higher = stronger binding
Starting sequence: ORC1 docking peptide (human); PRARKRLELGNLG
Under “normalised enrichment score”, `PFARKRLELGNLG [R2F]` is recorded as 1.74.
Under “normalised enrichment score”, `PRARKRLWLGNLG [E8W]` is recorded as 3.52.
Under “normalised enrichment score”, `PRAFKRLELGNLG [R4F]` is recorded as 1.91.
`PRARKRLELGNMG [L12M]` — result for “normalised enrichment score”: 4.15.
For `PRAPKRLELGNLG [R4P]`, “normalised enrichment score” read 0.986.
`PRARKRLEQGNLG [L9Q]`: “normalised enrichment score” 1.24.
`PRARKRLEYGNLG [L9Y]`: “normalised enrichment score” 3.83.
`PRARKILELGNLG [R6I]` — result for “normalised enrichment score”: 1.61.
For `PRARKRLENGNLG [L9N]`, “normalised enrichment score” read 1.04.
For `PRARKRLHLGNLG [E8H]`, “normalised enrichment score” read 1.67.
`PRARKRLELGNHG [L12H]`: “normalised enrichment score” 3.68.
`PRARKRLGLGNLG [E8G]` — result for “normalised enrichment score”: 1.5.
`PRARKRLELINLG [G10I]`: “normalised enrichment score” 2.59.
`PRGRKRLELGNLG [A3G]`: “normalised enrichment score” 0.973.
For `PRARKRLELGNLR [G13R]`, “normalised enrichment score” read 3.1.
Under “normalised enrichment score”, `PRARKRFELGNLG [L7F]` is recorded as 0.198.

Further values, each from its own experiment
`PhoQ, residues 284 288 289 292 302 303 AQGLTV` has a fold induction of 12.4 (PhoP, residues 12 14 15 18 19 SFCSL (Escherichia coli, UniProt P23836); Sort-seq, measured: YFP reporter; E. coli; PhoQ-PhoP variant library, with: 10 µM Mg2+; reference: high Mg2+ state, higher = stronger signaling).

Some of these lines once more (set 2):
`GATTGCAA` gave an E-score of 0.0363.
For `AGACTAAT`, the E-score was 0.184.
For `CCCGAGAA`, the E-score was -0.138.
For `ACCGATCA`, the E-score was 0.0766.
With `ATTCCTGG` the E-score was -0.00736.
The E-score of `CCCGGTCA` is reported as -0.243.
